Measured values from different studies.
Lines come from different studies, so protocols differ. ± marks the error that the study gave.

| SMILES | test | test system | conditions | half-life [h] |
| --- | --- | --- | --- | --- |
| CC(=CCC(O)C(C)=Cc1csc(C)n1)CC=CC(C)C(O)C(C)C(=O)C(C)(C)C(O)CC(=O)O (centres unmarked) | – | human, plasma | intravenous infusion, 27 mg/m2 KOS-1584, 3 h infusion, cycle 1 | 34.6 ± 17 |
| c1ccc(C2(CCNC3CCC4(SCCS4)c4ccccc43)CCOC3(CCCC3)C2)nc1 (centres unmarked) | – | Sprague-Dawley rat, plasma | intravenous, 0.05 mg/kg | 1.37 |
| [2H]C([2H])([2H])C([2H])([2H])C([2H])([2H])OC(C(=O)OC1CCNCC1)(c1ccccc1)c1ccccc1 | – | male human, plasma | oral, 12 mg, multiple doses | 75.7 |
| CCCCCCCCC=CCCCCCCCC(=O)OCC1OC(n2ccc(N)nc2=O)C(F)(F)C1O (centres unmarked) | – | beagle dog, plasma | intravenous, 2 to 6 mg/kg | 0.05 to 0.07 |
| CC[C@H](C)C(=O)N1CCC(NC(=O)Nc2ccc(OC(F)(F)F)c(F)c2)CC1 | – | human, plasma | oral, 24 mg, single dose, healthy volunteers | 41.8 |
| CC(C)(CCCC/C=C/CCCCCC(C)(C)C(=O)O)C(=O)O | allometric estimate from V/CL | beagle dog, plasma | – | 21.5 |
| C=CC1CN2CCC1CC2C(OC(=O)NCCCCCCNC(=O)OC(c1ccnc2ccc(OC)cc12)C1CC2CCN1CC2C=C)c1ccnc2ccc(OC)cc12 (centres unmarked) | chemical stability | human, plasma | pH 7.4 | > 90 |
| CSCC[C@H](NC(=O)CNC(=O)[C@H](CC(=O)O)NC(=O)[C@@H](NC(=O)[C@@H](NC(=O)[C@@H](NC(=O)CNC(=O)[C@H](CCC(N)=O)NC(=O)[C@H](CCSC)NC(=O)[C@H](CC(=O)O)NC(=O)[C@H](C)NC(=O)[C@H](C)NC(=O)[C@@H](NC(=O)[C@H](CO)NC(=O)[C@@H](N)CC(C)C)[C@@H](C)O)C(C)C)C(C)C)[C@@H](C)O)C(=O)N[C@@H](C)C(=O)N[C@@H](CO)C(=O)NCC(=O)N[C@@H](CC(C)C)C(=O)N[C@@H](CC(=O)O)C(=O)N[C@@H](CCCCN)C(=O)N[C@@H](CC(=O)O)C(=O)N[C@@H](Cc1ccc(O)cc1)C(=O)N[C@@H](CC(C)C)C(=O)N[C@@H](CCCCN)C(=O)N1CCC[C@H]1C(=O)N[C@@H](CC(=O)O)C(=O)N[C@@H](CC(=O)O)C(=O)O | – | human, serum | intravenous, 4.16 mg/kg, patients, infusion | 0.105 |
